Measurements gathered from unrelated publications.
Each numbered part is a random draw from the data of one study; scales do not carry over between parts. Substitutions count along the parent as printed.

Set 1 — technique: protein-binding microarray; form: double-stranded DNA, one strand shown; medium: in vitro; tested at: 250 nM; setting: 60-bp whole probe; together with: salmon DNA 0.4 mg/ml; baseline: random background probes; reading: higher = stronger binding; shared flanks, not repeated: GCCTAGCAC … GTCTTGATTCGCTTGACGCTGCTG
Target: Interferon regulatory factor 5, full length, phosphomimetic (IRF5, Homo sapiens, UniProt Q13568-2, residues 1-514, K96S/S451D/S453D/S456D/S462D)
Oligonucleotide | log fluorescence [z-score]
GACGGTATGGACACTGGGGACGTGCTA | -0.0786
CTGCAGGTAGCAGAGACTTGGTGCTAG | -0.435
TTGGAACTGAGTCTCGATTAGTGCTAG | 0.446
GTCAGCGGTGGTGTTCGGTGGTGCTAG | -0.333
TCACATATAATTTTGTCATCGTGCTAG | 0.716
TTAGGACTGGACGATCGGTTAGTGCTA | 0.0699
AACGATTTCAGACTGGAGACGTGCTAG | 0.366
AACGGTATCCTTCTCCTGACGTGCTAG | 0.22
TCAATATTCACTATAGTACTGTGCTAG | 0.957
CACGGTATCGACTATCGGGACGTGCTA | 3.88

Set 2 — technique: protein-binding microarray; form: double-stranded DNA, one strand shown; medium: in vitro; tested at: 0.8 µM; setting: whole 60-bp probe, no competitor; reading: higher = stronger binding; shared flanks, not repeated: … GTCTTGATTCGCTTGACGCTGCTG
Target: Centromere-binding protein 1, full length, N-terminal tag (CBF1, Saccharomyces cerevisiae, UniProt P17106, residues 1-351)
Chain of UniProt P17106 (whole entry, looked up): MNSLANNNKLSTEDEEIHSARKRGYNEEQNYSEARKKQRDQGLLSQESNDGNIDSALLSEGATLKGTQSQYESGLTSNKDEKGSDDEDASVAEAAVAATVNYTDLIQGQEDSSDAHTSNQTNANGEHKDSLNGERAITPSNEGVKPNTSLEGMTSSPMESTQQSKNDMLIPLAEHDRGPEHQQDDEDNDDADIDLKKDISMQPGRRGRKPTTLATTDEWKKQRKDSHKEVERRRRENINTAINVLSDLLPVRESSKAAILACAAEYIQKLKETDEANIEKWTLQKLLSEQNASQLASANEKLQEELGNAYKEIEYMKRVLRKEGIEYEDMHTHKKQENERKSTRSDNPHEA
Oligonucleotide | fluorescence intensity [a.u.]
CTATTAGTAGTGTATTATCACATGGTGTGTAAGTTC | 1990
GAACAGGCATTCCATGTGATAATGAAATTCTCGTAG | 1170
GAAGTGCAGTAACTCCTCGTGCTTACGCTAACTTAG | 640
CTATATTGTTGGCAATTCGTGGTGGAGACTTAGTTC | 565
CTATGCTGCTAGAATAGTATCACGTACAGTAGTTTC | 688
TGTACGAAGCTATGTTATCAGCTTATAGTAGTTAGG | 512
GAAGTGGAAAAACAACACGTCTCCCCGCCCCTGTAG | 542
GAATTATTCTTTCTTGGTGACATGAAAATAATATAG | 612
CTATTTCTGGAAAATTCCACGAGGTCCGTATATTTC | 618
GAATATTATCAAGCCCTGATGACAGACTTTGCATAG | 522

Set 3 — target: CCND3, cyclin fold, Cln2 fusion (human); technique: yeast growth competition, sequencing; medium: yeast; setting: strong parent motif; baseline: not given; reading: higher = stronger binding
Starting sequence: INSM1 docking peptide (human); PKAIRKLHFEDEV
Change | normalised enrichment score
D11Q | 0.446
A3T | 0.471
K6D | 0.106
A3E | 0.323
D11V | 0.321
E10W | 0.458
R5V | 0.0731
K2T | 1.73
E10P | 1.14

Further values, each from its own experiment
Substance | target | test | system | setting | how to read | endpoint | result
PhoQ, residues 284 288 289 292 302 303 TGYLSA | PhoP, residues 12 14 15 18 19 NHTVL (Escherichia coli, UniProt P23836) | Sort-seq, measured: YFP reporter | E. coli | PhoQ-PhoP variant library, together with: 10 µM Mg2+ | baseline: high Mg2+ state, higher = stronger signaling | fold induction | 0.118
